# Measured values from different studies.
# Each numbered part is a random draw from the data of one study; scales do not carry over between parts.

# Block 1 — technique: RNA Bind-n-Seq; molecule type: RNA; sample: in vitro; concentration: 365 nM; baseline: no-protein control; direction: higher = stronger binding
# Target: RNA binding protein fox-1 homolog 2, RRM domain, GST-SBP tag (RBFOX2, Homo sapiens, UniProt O43251-10, residues 100-194)
# Setting: natural RNA segment, single round, ends assumed
# All sequences stand within: GGGAGUUCUACAGUCCGACGAUC … UGGAAUUCUCGGGUGCCAA
# Construct (chain): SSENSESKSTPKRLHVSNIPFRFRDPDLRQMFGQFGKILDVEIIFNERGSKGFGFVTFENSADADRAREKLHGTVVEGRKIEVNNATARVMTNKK
Strand,RBNS enrichment (R)
CUCCUUAGGGAGUCUCUAAAACCGCUUCACUAUCAGCAACCAGGAGUACUAGAAGCCAGAGCACUCUUCCUCCUGGCUCCUCCCCAGUGCUCUAGUGCUGUAGGAACCAA,0.269
AAAUUAUUCUUGUACAGUUUUAUUUGUACAGUUCAGUGUAACCACCUAUCAUCUUGUUAACACUAGAUUCUUCUGAGAUUCAAAAAGAAAAAUCACUGUCAGAGCUAGCC,0.292
AUCCAGGAAUUUUAAACUAAAGCAAUGAGUUGUCUGUCACCUUGCCCUGGAACUCCAGCGUAACCUGCCUUAGUGUUCCUUGUGUUGUCUGCUUUGAUGUAAAACCACAG,0.222
GCUCAGAGAGGAGGAUCUAUGCUGACCUCAGAAGAUGUAGAUGUUUACAUAAUUUAAUACAGAUUGAUGUUAAUACUUGUGUAUUUACAUAACCAUUUCCUUCUUGUCAC,0.248
CUGGAAGGAAAGAUUCCCAGCAUGCAGUGCUCUCUCCUCCAGGGAGGAGAAUGUGUGCUGGGCUAUGGGAGCCAUGUUCAGAGAUUUGUGUGUGUGUGCCAGAGUAGCUG,1.31
UGCCAACAGUGGACUCAAACGGCGUGACUACCAACCCUGUCCCCAGUUUUCUCCCAUUCCGUCGUCACCCGUGCCCCUCACCCACAAUCCCCUUGUUGGACACACUGCCU,0.632
CCGGUGGGCAGUGGGUGGAUCCUGGUUUCGUGUGCUGCCCAUGCACCUUCCAGCCCGGGGCCAGCUUGGCAGGGAUCCCCAGGAGGCCUGGGCCGCCCAGAGGCUCCUCU,0.477
UGCUGUUUUGUAAAAAGAAAAAGAAAAAAGAAGCCCAAACUAGUGAGAGUAAUAUCUAAUUAUCUCAUUUUUUGUAGGUCUGUGAUAAAGAACUUAGUCAUCCCUUCCAC,0.532

# Block 2 — technique: RNAcompete; molecule type: RNA; sample: in vitro; concentration: 20 nM; setting: 7-mer, probes averaged, single round; baseline: mean of 7-mers; direction: higher = stronger binding
# Target: PABPC1L2, full length, GST fusion (mouse, UniProt A0ABA7IW68)
# Target sequence (chain): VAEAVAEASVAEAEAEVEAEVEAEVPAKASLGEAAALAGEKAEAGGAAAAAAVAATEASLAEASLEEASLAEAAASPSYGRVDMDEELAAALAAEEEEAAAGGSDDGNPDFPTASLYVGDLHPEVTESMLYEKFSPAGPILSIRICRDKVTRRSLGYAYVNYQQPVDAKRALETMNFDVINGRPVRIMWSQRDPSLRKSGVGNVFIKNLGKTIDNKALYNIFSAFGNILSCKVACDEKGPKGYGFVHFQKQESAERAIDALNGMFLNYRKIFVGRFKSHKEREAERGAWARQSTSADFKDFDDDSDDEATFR
Strand,7-mer Z-score
GGACAUA,0.242
UGAACUU,-0.235
AGAGCAU,0.00436
GGUUGGG,0.106
ACAGAUU,-0.0591
CCUUAGG,-0.342
GAGCGAG,0.131
UAGUUAG,-0.168
GUUGUCC,-0.405
ACGUUGA,-0.117
ACACCGC,-0.11
UGUGAUA,-0.22
GCCGAGC,-0.144
AGCAAUU,-0.00652
CUAUUAU,-0.233
UGAGCCG,-0.264
AAUUUAG,0.671
GAAGCUA,0.0207
GCCACGA,-0.0663
GGUAAAA,2.89

# Block 3 — technique: protein binding microarray; molecule type: double-stranded DNA, one strand shown; sample: in vitro; concentration: not given; baseline: not given; direction: higher = stronger binding
# Target: Histone acetyltransferase KAT6A, winged helix 2, GST fusion (KAT6A, Homo sapiens, UniProt Q92794, residues 85-181)
# Setting: 8-mer, flanks averaged, mean of 2 arrays, mostly near background
# Target sequence (chain): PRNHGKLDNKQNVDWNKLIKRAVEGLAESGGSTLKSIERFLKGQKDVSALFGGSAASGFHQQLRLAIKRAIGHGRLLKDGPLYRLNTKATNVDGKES
Strand,E-score
AGTGCCAC,-0.0285
ACCGAGGG,-0.0547
GTTCAGAA,-0.045
AGGCACAA,0.0698
CGAAAGGA,-0.0529
CCAGCGTA,0.115
CGACTCCC,-0.0557
CTTTTTAC,-0.038
GCGACTCC,-0.094
GGATGCTA,0.0347
TACTTGGA,0.04
ATGCGTAA,-0.183
ACGCAGGA,0.159
CTACACTC,-0.142
CGGGGCGA,0.179
CACACATA,-0.0654
GATCAACC,-0.154
GTCTAGAC,-0.18
GCCTTTAC,-0.0707

# Block 4 — technique: competition protein-binding microarray; molecule type: double-stranded DNA, one strand shown; sample: in vitro; concentration: 2 µM; with: Pho4 competitor, 0.05 µM; direction: higher = stronger binding; all sequences stand within: … GTCTTGATTCGCTTGACGCTGCTG
# Target: Centromere-binding protein 1, full length, His-tagged (CBF1, Saccharomyces cerevisiae, UniProt P17106, residues 1-351)
# UniProt P17106, sequence (whole entry, looked up): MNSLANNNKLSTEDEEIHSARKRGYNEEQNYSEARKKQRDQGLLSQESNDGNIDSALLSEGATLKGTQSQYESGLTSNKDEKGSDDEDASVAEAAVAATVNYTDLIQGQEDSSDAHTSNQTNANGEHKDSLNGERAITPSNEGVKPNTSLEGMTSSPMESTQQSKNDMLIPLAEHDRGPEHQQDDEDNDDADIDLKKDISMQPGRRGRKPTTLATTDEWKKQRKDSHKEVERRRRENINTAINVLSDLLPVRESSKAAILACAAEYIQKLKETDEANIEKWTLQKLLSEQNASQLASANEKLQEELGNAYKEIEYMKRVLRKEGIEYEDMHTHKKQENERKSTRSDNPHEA
# Setting: whole 60-bp probe, lowest competitor level
Strand,fluorescence intensity [a.u.]
CTTTTTGGAAACGGCCACGTCTTTTGACAGATTTAG,62.4
GTTTCTGTCGCAAAGCACGTTATGGCCACAATTTTG,121
AAATTACTAAGTTGGAATGTGGGTGACGCCGTATGA,68.6
AAACCTGGTTCTGCTACCGTGCCAGTCTTTGGTATT,53.3
TGCGCAACAACTTTTCACGTGCCCTTATGTCTAGAA,1890
CCGCAACTCCGCGATCGCGCGCCAAGGGCCGTCGGC,46.4
TATTGGGCTATTTAGCACGTGATGGTAAAGTATATT,5810
TTTGGGGTACGGAACAACGTGATTGGGAAGCTGCTC,449
ATGGTTAGAAAAAGAAACGTGCAATCGCCCGTCTGG,108
GGCAAATACTGCCGACACGTTGCCAAATCGCTGACC,112
CGTCCTAGTGATTGGTGCGTGGGTGCCATGAGGAAG,97.9
CTTTCCCGATCTTGTCACGTAACTTTAGCACATTTG,131
AGCCTGTCTATGGCCAAGCCATGTCAAGTACTACAA,56.5
CAGTTCTACTGGTTCGACGTGCTTTACACCCGCAAC,64.4

# Some of these lines once more (block 2):
Strand,7-mer Z-score
ACAGAUU,-0.0591
CCUUAGG,-0.342
GAGCGAG,0.131
UAGUUAG,-0.168
GUUGUCC,-0.405
